# Assay results of several laboratories.
# Protocols differ between the studies behind these lines. “And” joins repeats or separate records; there may be more than shown. ± marks the error that the study gave.
SMILES,target or system,assay,test system,conditions,scale,quantity,result
O=S(=O)(NCc1ccncc1)c1ccc(C2CCCCC2)cc1,,,wild-type littermate mouse,0.3 mg/kg,reference: vehicle,body weight change,2 ± 1 g
Cc1cccc(O[C@H]2CCC[C@@H](C(C)CNCc3ccncc3)C2)c1 (relative stereo),,,C57BL/6 mouse adult female,"25 mg/kg, one month, toxicity study",,body weight,24.2 g
C#CCOCCOCCOCCOCCn1cc(C(ONC(=O)/C=C/C(C)=C/C2(C)Oc3cc(N(C)C)ccc3C2=O)(c2ccc(C)cc2)c2ccc(C)cc2)nn1 (centres unmarked),,HPLC,"aqueous buffer, 20% acetonitrile","concentration not given, 300 min, pH 3",reference: initial prodrug amount,release from prodrug hydrolysis,27%
O=C(N/N=C/c1ccc(-c2ccccc2Cl)o1)c1ccccc1,Trypanosoma cruzi,"reporter mRNA translation, inhibitor, item: capped polyadenylated Renilla luciferase mRNA",cell-free extract,concentration not given,reference: positive over negative control,translation activity,114% and 106% and 96.3% and 105%
CN(C)S(=O)(=O)c1ccc(S(=O)(=O)N2CCC(n3c(=O)[nH]c4ccccc43)CC2)cc1,,,mouse,"dose not given, day 3",reference: day 0,relative body weight,93% and 96% and 99%
CC(C)=CCCC(C)CN(C)CCc1ccccn1 (centres unmarked),Trypanosoma cruzi,"reporter mRNA translation, inhibitor, item: Renilla luciferase mRNA",cell-free extract,"concentration not given, test 2",reference: positive over negative control,translation activity,96.8%
N=C(N)NCCC[C@@H]1NC(=O)[C@H](CO)NC(=O)[C@@H](NC(=O)[C@H](CO)NC(=O)[C@H](CO)NC(=O)[C@H](Cc2c[nH]c3ccccc23)NC(=O)CNC(=O)[C@H](CO)NC(=O)[C@@H](N)Cc2c[nH]c3ccccc23)CSSC[C@@H](C(=O)NCC(=O)O)NC(=O)[C@H](CO)NC1=O,,,"patients, plasma","intravenous, 10 mg/kg, thrice weekly, geometric mean",,Cmax,5880 ng/mL
COc1ccc(Cn2c(=O)n(O)c(=O)c3ccccc32)cc1,,shake flask,aqueous buffer,pH 7.4,,logD,1.5
CC(=O)N([O-])CCCCCNC(=O)CCC(=O)N([O-])CCCCCNC(=O)CCC(=O)N([O-])CCCCCN.[89Zr+4],,,"mouse, lung",24 h,,tracer uptake,0.04 %ID/g
O=C(NS(=O)(=O)c1cccs1)c1cc2ccccc2n1Cc1ccc(Br)c2ccccc12,,,"KM mouse, chronic hyperuricaemia model","dose not given, day 21",,body weight,36.6 g and 38.2 g and 32.6 g and 34.6 g and 35.6 g
CN1CCC[C@]1(C)/C=C/S(=O)(=O)NC(=O)Nc1c2c(cc3c1CCC3)CC=C2,,,"human, plasma","oral, 100 mg twice daily of parent drug, day 14, metabolite of dosed drug",,Cmax at first steady-state dose,54.5 µg/mL
CCCC[C@H](OC(C)=O)c1ccccc1C(=O)O,,,"Sprague-Dawley rats, both sexes, whole blood","intravenous, 1.25 mg/kg single dose",,Tmax,1.02 min
CNc1cc(C)c(C(N)=O)cn1,,,"Han Wistar rats, male, plasma","oral, 30 mg/kg, 1.00 h",,concentration at time,83.5 µM
Cc1c(Cc2ccc(Cl)c(O[C@@H](C)C(=O)O)c2)c2ccc(C(=O)N[C@@H](C)c3ccc(C(C)(C)C)cc3)cc2n1CC1CC1,,,mouse liver microsomes,"1 µM, added: microsomes 1 mg/mL",,half-life,> 60 min
COc1cccc(OC)c1-c1cc(C(=O)NC2(C(=O)O)C3CC4CC(C3)CC2C4)nn1-c1ccc(C(=O)N(C)CCCN(C)CCCN(C)C(=O)[C@H](CCCCNC(=O)[C@H](CC(C)C)NC(=O)C2OC2C(=O)O)NC(=O)CN2CCN(CC(=O)[O-])CCN(CC(=O)[O-])CCN(CC(=O)[O-])CC2)cc1C(C)C.[177Lu+3] (mixture of isomers),,,"mouse, HT-29 xenograft, spleen",4 h post injection,,tissue uptake,1.04 %ID/g
C[C@H](C(=O)O)c1ccc(-c2ccccc2)c(F)c1,,HPLC,sample solution,"concentration not given, 12 h, room temperature, solution stability",,"peak area change, RE",0.48%
CC1(C)OCCc2cc(C(=O)N3CCC(c4nc(-c5ccccc5)n[nH]4)CC3)ccc21,,,CD-1 mouse liver microsomes,"pH 7.4, added: NADPH",,half-life,1.2 min
